Results pooled from the literature.
Each numbered part is a random draw from the data of one study; scales do not carry over between parts.
Chain of UniProt Q02763 (whole entry, looked up): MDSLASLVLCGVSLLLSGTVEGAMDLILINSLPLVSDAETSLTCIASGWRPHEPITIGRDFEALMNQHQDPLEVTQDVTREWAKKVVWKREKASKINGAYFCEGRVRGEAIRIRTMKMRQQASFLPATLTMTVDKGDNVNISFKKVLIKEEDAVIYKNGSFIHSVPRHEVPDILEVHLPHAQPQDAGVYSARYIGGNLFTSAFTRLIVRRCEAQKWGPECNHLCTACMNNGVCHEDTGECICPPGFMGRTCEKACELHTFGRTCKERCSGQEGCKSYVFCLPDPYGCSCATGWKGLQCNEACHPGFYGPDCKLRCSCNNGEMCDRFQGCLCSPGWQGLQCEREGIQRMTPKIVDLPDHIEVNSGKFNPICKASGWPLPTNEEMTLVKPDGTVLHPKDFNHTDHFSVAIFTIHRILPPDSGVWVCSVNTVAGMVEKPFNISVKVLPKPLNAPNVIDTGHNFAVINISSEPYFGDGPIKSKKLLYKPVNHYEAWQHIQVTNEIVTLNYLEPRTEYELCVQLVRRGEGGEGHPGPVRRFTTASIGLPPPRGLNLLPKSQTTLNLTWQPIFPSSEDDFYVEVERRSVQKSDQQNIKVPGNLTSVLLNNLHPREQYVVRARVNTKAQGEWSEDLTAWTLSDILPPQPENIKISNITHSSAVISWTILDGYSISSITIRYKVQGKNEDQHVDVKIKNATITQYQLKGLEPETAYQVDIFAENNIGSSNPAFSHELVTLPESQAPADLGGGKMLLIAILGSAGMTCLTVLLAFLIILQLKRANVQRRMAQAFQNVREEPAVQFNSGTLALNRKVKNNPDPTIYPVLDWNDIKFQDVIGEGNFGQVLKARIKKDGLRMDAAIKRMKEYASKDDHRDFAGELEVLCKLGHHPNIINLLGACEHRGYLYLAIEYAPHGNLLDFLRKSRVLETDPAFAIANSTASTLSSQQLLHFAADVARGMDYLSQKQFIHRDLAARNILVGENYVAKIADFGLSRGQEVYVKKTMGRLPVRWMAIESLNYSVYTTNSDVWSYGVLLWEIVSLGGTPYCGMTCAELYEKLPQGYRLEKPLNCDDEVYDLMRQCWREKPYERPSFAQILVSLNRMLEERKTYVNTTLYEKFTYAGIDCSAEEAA

Series 1 — technique: RNA Bind-n-Seq; molecule type: RNA; sample: in vitro; tested at: 20 nM; notes: 6-mer, flanks averaged, single round; together with: 150 mM LiCl; baseline: input library; direction: higher = stronger binding
Target: TAR DNA-binding protein 43, full length, His tag (TARDBP, Homo sapiens, UniProt Q13148, residues 1-414)
Strand | 6-mer enrichment (R)
GGAGCG | 1.17
CGGUUG | 1.05
CACUAC | 0.871
AUCUUA | 0.879
GUACGC | 0.916
GCUACU | 0.866
ACGCGU | 0.93
UAGACC | 0.864

Series 2 — technique: protein-binding microarray; molecule type: double-stranded DNA, one strand shown; sample: in vitro; tested at: not given; direction: higher = stronger binding
Target: Hepatocyte nuclear factor 3-beta, forkhead domain (FOXA2, Homo sapiens, UniProt Q9Y261, residues 142-269)
Notes: k-mer, scored over probes, only values ≥0.25
Target sequence (chain): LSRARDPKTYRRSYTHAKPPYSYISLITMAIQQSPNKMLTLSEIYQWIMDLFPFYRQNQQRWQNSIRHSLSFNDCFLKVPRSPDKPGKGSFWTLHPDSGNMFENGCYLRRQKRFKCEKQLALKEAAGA
Strand | E-score
ATATGGAG | 0.252
CAATTCAC | 0.251
CACATGAC | 0.283
GGATACAA | 0.257
ATTGTAGA | 0.277
TGTATAAA | 0.341
ACTAATGA | 0.29
AGGTAAAC | 0.251

Series 3 — technique: aptamer microarray, sandwich; molecule type: DNA with 2'F-ANA; sample: in vitro; tested at: 200 nM; together with: Cy3 exosite-II aptamer, 400 nM; direction: higher = stronger binding; strand: GGTTGGTGTGGTTGG
Target: Prothrombin, mature alpha-thrombin (F2, Homo sapiens, UniProt P00734)
Notes: whole 15-mer aptamer, many near background
Modification | mean fluorescence intensity [a.u.]
2'F-ANA at 1 3 4 5 7 11 15 | 105
2'F-ANA at 1 2 3 4 5 8 12 14 15 | 49.4
2'F-ANA at 1 3 5 6 7 9 11 12 13 15 | 88.8
2'F-ANA at 1 2 6 7 8 9 10 13 15 | 64.4
2'F-ANA at 1 6 7 10 11 | 101
2'F-ANA at 3 4 5 6 7 9 10 11 14 15 | 48.5
2'F-ANA at 1 2 4 5 6 7 9 15 | 60.9
2'F-ANA at 2 3 4 5 7 8 9 14 15 | 206

Further values, each from its own experiment
Structure (SMILES) | target | read-out | technique | tested at | measurement | value
O=S(=O)(NC1CCC(c2cc(F)ccc2F)(S(=O)(=O)c2ccc(Cl)cc2)CC1)C(F)(F)F (stereo not shown) | Angiopoietin-1 receptor (TEK, Homo sapiens, UniProt Q02763) | cell-free assay | competition with immobilised ligand | 1 µM | remaining binding | 85%

Some of these lines once more (series 1):
Strand | 6-mer enrichment (R)
GUACGC | 0.916
CGGUUG | 1.05
